Assay results gathered from unrelated publications.
Lines come from different studies, so protocols differ.

| SMILES | organism | test | test system | conditions | MIC |
| --- | --- | --- | --- | --- | --- |
| CC[C@H](C)[C@H](NC(=O)[C@@H](NC(=O)CN)C(C)C)C(=O)N[C@@H](Cc1ccccc1)C(=O)N[C@@H](CC(N)=O)C(=O)N[C@@H](C)C(=O)N[C@@H](CC(C)C)C(=O)N[C@@H](CCCCN)C(=O)NCC(=O)N[C@H](C(=O)N[C@@H](C)C(=O)N[C@@H](CCCCN)C(=O)N[C@H](C(=O)N[C@H](C(=O)N[C@@H](C)C(=O)N[C@@H](C)C(=O)N[C@@H](CCC(N)=O)C(=O)N[C@@H](CC(C)C)C(=O)N[C@@H](CC(C)C)C(=O)N[C@@H](CCCCN)C(=O)N[C@@H](CCCCN)C(=O)N[C@@H](C)C(=O)N[C@@H](CCCNC(=N)N)C(=O)N[C@H]1CSSC[C@@H](C(=O)O)NC(=O)[C@H](CO)NC(=O)[C@H](CCCCN)NC(=O)[C@H](CC(=O)O)NC(=O)[C@H](CC(C)C)NC(=O)[C@H](CCCCN)NC1=O)C(C)C)[C@@H](C)O)C(C)C | Staphylococcus aureus | – | NCTC 10788 | added: horse serum 10% | 2 µM |
| O=C(NCc1nc(-c2ccc(Br)cc2)c[nH]1)Nc1ncc(Sc2ccccn2)s1 | Bacteroides ovatus | broth microdilution | ATCC 8485 | added: verapamil 50 µg/mL | > 128 µM |
| [O-][N+]1=C(c2ccccc2)C2=NCCCN2c2ncccc21 | Fusobacterium nucleatum | microbial growth | ATCC25586 | – | 0.125 µg/mL |
| CC[C@H](C)[C@H](NC(=O)[C@@H]1CC(=O)N[C@@H](CO)C(=O)N[C@@H](CC(C)C)C(=O)NCC(=O)N[C@@H](CO)C(=O)N[C@@H](CO)C(=O)N2CCC[C@H]2C(=O)N[C@@H](Cc2ccc(O)cc2)C(=O)N[C@@H](CC(N)=O)C(=O)N1)C(=O)N[C@@H](CC(C)C)C(=O)NCC(=O)N[C@@H](Cc1ccc(O)cc1)C(=O)N1CCC[C@H]1C(=O)N[C@@H](C)C(=O)N[C@@H](CC(C)C)C(=O)N[C@H](C(=O)N[C@H](C(=O)N[C@H](C(=O)N[C@@H](Cc1ccc(O)cc1)C(=O)N1CCC[C@H]1C(=O)O)[C@@H](C)CC)C(C)C)[C@@H](C)CC | Pseudomonas putida | – | – | – | > 128 µg/mL |
| CC[C@H](C)[C@H](NC(=O)[C@H](CO)NC(=O)[C@H](CO)NC(=O)[C@H](Cc1ccccc1)NC(=O)CN)C(=O)N[C@@H](Cc1ccccc1)C(=O)N[C@@H](CCCNC(=N)N)C(=O)NCC(=O)N[C@H](C(=O)N[C@@H](C)C(=O)N[C@@H](CCCCN)C(N)=O)C(C)C | Escherichia coli | – | ATCC 8739 | added: 150 mM NaCl | > 128 µM |
| CCCCCCCCCCCC[S+]([O-])CC1OC(OC2C(N)CC(N)C(OC3OC(CN)C(O)CC3N)C2O)C(O)C(N)C1O (mixture of isomers) | Listeria monocytogenes | – | ATCC 19115 | – | 9.4 µg/mL |
| COc1ccc(C2=[N+]([O-])c3ccccc3N3CCN=C23)cc1 | Bacteroides ovatus | – | ATCC 84834 | – | ≤ 0.06 µg/mL |
| CC[C@@H](C)[C@@H](NC(=O)[C@@H](C)NC(=O)[C@@H](CCCCN)NC(=O)[C@@H](CC(C)C)NC(=O)[C@@H](C)NC(=O)[C@H](NC(=O)[C@@H](Cc1c[nH]cn1)NC(=O)[C@@H](CC(C)C)NC(=O)[C@H](NC(=O)[C@H](NC(=O)[C@@H](CCCCN)NC(=O)[C@@H](CCCCN)NC(=O)[C@@H](C)NC(=O)[C@@H](CO)NC(=O)[C@@H](CCCCN)NC(=O)[C@@H](Cc1ccccc1)NC(=O)[C@H](NC(=O)[C@@H](CCCCN)NC(=O)[C@@H](CC(C)C)NC(=O)[C@@H](Cc1ccccc1)NC(=O)[C@@H](CO)NC(=O)[C@@H](CCCCN)NC(=O)[C@@H](Cc1c[nH]c2ccccc12)NC(=O)[C@@H](CCCCN)NC(C)=O)[C@H](C)O)[C@H](C)O)C(C)C)[C@H](C)O)C(=O)N[C@H](CO)C(=O)N[C@H](CO)C(N)=O | Acinetobacter baumannii | – | 1012, Mueller-Hinton broth | 24 h, 37 °C | 0.8 µM |
| CC(C)C[C@@H]1NC(=O)[C@H](C)NC(=O)[C@@H]2NC(=O)[C@H](CO)NC(=O)[C@@H](CCCCN)NC(=O)[C@H](NC(=O)[C@@H](N)Cc3ccccc3)CCCCCCCC[C@H](NC1=O)C(=O)O[C@H]2C | Bacillus subtilis Bacillus subtilis | – | ATCC 6051 | tested as TFA salt | 4 µg/mL |
| [O-][N+]1=C(Cc2ccccc2)C2=NCCCN2c2ccccc21 | Eggerthella lenta | microbial growth | ATCC43055 | – | 2 µg/mL |

Some of these lines once more:
| SMILES | organism | test | test system | conditions | MIC |
| --- | --- | --- | --- | --- | --- |
| [O-][N+]1=C(c2ccccc2)C2=NCCCN2c2ncccc21 | Fusobacterium nucleatum | microbial growth | ATCC25586 | – | 0.125 µg/mL |
